Experimental data from different studies.
Every numbered part comes from another study and shows a few of its results, in no order. Substitutions count along the parent as printed.

Study 1 — target: CCNB2, cyclin fold, Cln2 fusion (human); method: yeast growth competition, sequencing; matrix: yeast; setting: weak parent motif; relative to: not given; reading: higher = stronger binding
Starting sequence: CDKN1A docking peptide (human); SKACRRLFGPVDS; partner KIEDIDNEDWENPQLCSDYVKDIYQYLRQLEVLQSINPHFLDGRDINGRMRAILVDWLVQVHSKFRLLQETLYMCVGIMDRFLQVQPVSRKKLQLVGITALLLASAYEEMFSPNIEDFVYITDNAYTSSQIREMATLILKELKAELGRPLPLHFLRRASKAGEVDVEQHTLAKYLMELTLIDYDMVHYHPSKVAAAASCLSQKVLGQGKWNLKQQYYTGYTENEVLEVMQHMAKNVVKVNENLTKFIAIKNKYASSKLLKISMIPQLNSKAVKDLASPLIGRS
| Substitution | normalised enrichment score |
| --- | --- |
| SKACRRLFGPKDS [V11K] | -0.0717 |
| SKACRRNFGPVDS [L7N] | 0.314 |
| SKACGRLFGPVDS [R5G] | -0.159 |
| SKACRRLVGPVDS [F8V] | 0.427 |
| SKACRRLEGPVDS [F8E] | -0.654 |
| SKAQRRLFGPVDS [C4Q] | 0.758 |
| SKACHRLFGPVDS [R5H] | 0.0976 |
| SKARRRLFGPVDS [C4R] | 0.493 |
| SKACRRLTGPVDS [F8T] | -0.335 |
| SKAMRRLFGPVDS [C4M] | 0.259 |
| SKACRRLFGPVRS [D12R] | -0.178 |
| SKACRRLFSPVDS [G9S] | 0.108 |
| SKACRRAFGPVDS [L7A] | 0.19 |
| SKACRRYFGPVDS [L7Y] | 0.565 |
| SKACRRLFQPVDS [G9Q] | 0.121 |
| SKACRRLFGPVPS [D12P] | 0.304 |

Study 2 — method: RNA Bind-n-Seq; molecule type: RNA; matrix: in vitro; tested at: 365 nM; relative to: no-protein control; reading: higher = stronger binding
Target: RNA binding protein fox-1 homolog 2, RRM domain, GST-SBP tag (RBFOX2, Homo sapiens, UniProt O43251-10, residues 100-194)
Setting: natural RNA segment, single round, ends assumed
Shared flanks, not repeated: GGGAGUUCUACAGUCCGACGAUC … UGGAAUUCUCGGGUGCCAA
Residues (chain): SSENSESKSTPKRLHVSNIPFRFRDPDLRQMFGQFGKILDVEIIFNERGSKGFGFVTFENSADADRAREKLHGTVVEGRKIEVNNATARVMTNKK
| Strand | RBNS enrichment (R) |
| --- | --- |
| UUAAAGAUGACUUAUAAGAACCCUGAAAUUUAUAUAGGUGAGACAAUAGAAAUAAAAAGAUCUUCAGCCAGGCCUUUCUGAAGGAGUUAUUCUGCUAAAAAUGGUCUUAG | 0.964 |
| UGGGGACAAGGAUCAUCUAUACAGUGAAAUCAUGUCUCAGUUCCCAUCUAGUAAAAUGGCUGAAGGGGAAGAGAAGGAGGACCAAUCUGAAGACAAGAGCUCACCCACUG | 0.654 |
| GCCUCCCUCCCGCGGGAGGUUUCUCCUCUUUUUGAAAAUUCCGUCUGUGGGAUUUUUAGACAUUUUUCGACAUCAGGGUAUUUGUUCCACCUUGGCCAGGCCUCCUCGGA | 0.472 |
| CGGAGGCUCGGCCGUGGGCCGGGAGGCAGUGCUGAUCCGGCUGCUCCUCCAGCCCUUCAGACGAGAUCCUGUUUCAGCUAAAUGCAGGGAAACUCAAUGUUUUUUUAAGU | 0.41 |
| UUCCUUAAACAAAACAGACAGAGUAAGGAAAGGAAGGAGGGUGGCAGCCAGCUGGCUGGACACUCGAGAAAGACGGGGAAGUAAGCUACAGAAAGAUAGUCUUCAAAAAC | 0.606 |
| ACAGUCGGUGGCCUUGUACCUGGGGGAGGUGGCUUAGGGCUUCUACCUCUGGGGGUAGAGGGAAGACCUAAUUCACAGGUCCUGGGAAAUUUGCUCAAUAAAAGUGGCCU | 0.72 |
| CUCAUUUUUCUCCCCUGCUCCUAAAACCCAAAAUCUUCUAAAGAAUUCUAGAAGGUAUGCGAUCAAACUUUUUAAAGAAAGAAAAUACUUUUUGACUCAUGGUUUAAAGG | 0.669 |
| UAUUUUGUCCAAGUUCACAGUAGAGUAGGGUAGAAGGAAAGCAUGUCUCUGCUUCCAUGGCUUCCUGAGAAAGCCCACCUGGGCUGGGCGCGGUGGCUCACGCCUGUAAU | 3.44 |
| AUUACCAAAAGAAAAGGUAAGGUGGCAACCUUAUUUUUAAUAGUUUGAAAUGAUGAUAAUCCUAAUUAUAUAAAAAUAUAUAUAUAAACACACAUAUAUAUAGUGAUUUC | 1.24 |
| GGAAGCACCUCCUUCACGGUCAGGGGGCCUGUGCUUGGCUUUCUGCCAUCAGACAUUAAGCUGUAGCUGGCUCUGGCCAGCUGCUCCAGUGUACCAGAACCUGAGGAUGC | 0.342 |
| UUUUCCUCUCCAGAGGGAUCAGGGUCCUCUUAGGGAGUGACGGGCUUUUCAUAUAUUUUUGCUGAAGAAUAUAUGGAAAGGGUGGCAUUUGCGUCACGUGGACCAGGGAC | 0.493 |
| GAGCCAUACCGACCAUCGUCCAGCCCUCCUACGCAGAUGCUGUCACUGGCAGAGCACAGCCCACGGGGAUCACAGCGUUUCAGGAACGUUGCCACACCAAUCAGAGAGCC | 0.343 |

Study 3 — method: RNA Bind-n-Seq; molecule type: RNA; matrix: in vitro; tested at: 200 nM; setting: whole 134-nt RNA, ends assumed; with: 150 mM KCl; relative to: input library; reading: higher = stronger binding
Target: Fragile X messenger ribonucleoprotein 1, C-terminal low-complexity region (Fmr1, Mus musculus, UniProt P35922)
Shared flanks, not repeated: GGGAGUUCUACAGUCCGACGAUC … UGGAAUUCUCGGGUGUCAAGG
| Strand | log2 enrichment |
| --- | --- |
| UGGGAGGUGGAUUCUGUUUAUUUUUUUAGCUCAUUUCCAGGGGUGGGAAUUUUUUUUUAAUAUGUGUCAUGAAUAAAGUUGUUUUUGAAA | 0.115 |
| AGUCCUGUGCUACACAUCGUAUGUACCGAAUCGGCCCCCGGGGCCCCCGGCCCCCGGGAAAGUAUUAUGUUACGCCGUUCGGAUCUGCAC | -0.637 |
| CUCAAGUCCUGUGCUACACAUCGUAUGUACCGAAUCGGAAAGGUUUGGUUUGGAAAGUAUUAUGUUACGCCGUUCGGAUCUGCACUUCCA | -0.436 |
| GUCCUGUGCUACACAUCGUAUGUACCGAAUCGGAAAAAGGGAAAAAGGGGAAAAAGGGGAAAGUAUUAUGUUACGCCGUUCGGAUCUGCA | 0.0383 |
| GCAGGAAGUAAAAACAAAUGGAAAUGCUUCGGAUAGUGGCAGGGGGGGGGGUUGCUAAGGAAAGGGUGGGAUGGGAGUGGGUAAAGAGUU | 0.293 |
| ACCAUGCAGGUGGGCAUCUUUGGGAAGUGGGGCAAGGGGGGGAUAGGGAGGGGGGUAACACUUUGGGAACAGGUGGUCCCAGGUCGAUUC | 0.588 |
| UGGCCCUGGUGGCAUGCGGGGAGGAAGAGGUGGCCUCAUGGAUCGUGGUGGGCCCGGUGGAAUGUUCAGAGGUGGCCGUGGUGGAGACAG | 0.476 |
| GCAGGAAGUAAAAACAAAUUGAAAUGCUUCGGAUAGUGGCAGGGGUGGGGGUUGCUAAGGAAAGGGUGGGAUGGGAGUGGGUAAAGAGUU | 0.426 |
| AAGUCCUGUGCUACACAUCGUAUGUACCGAAUCAAAUUUAAACCCCCAAACCCAAAAAAGUAUUAUGUUACGCCGUUCGGAUCUGCACUU | -0.292 |
| AAGUCCUGUGCUACACAUCGUAUGUACCGAAUCGGUUUUUUUGGUUUUUGGAAAGGAAAGUAUUAUGUUACGCCGUUCGGAUCUGCACUU | -1.06 |
| GAACUUUAGAGGAGGAUCUGAUGGAUAUGGCAGUGGACGUGGAUUUGGGGAUGGCUAUAAUGGGUAUGGAGGAGGACCUGGAGGUGGCAA | 0.324 |
| UAACUUUAGAGGAGGAUCUGAUGGAUAUGGCAGUGGACGUGGAUUUGGGUAUGGCUAUAAUGGGUAUGGAGGAGGACCUGGAGGUGGCAA | 0.15 |
| UUCCUCAAGUCCUGUGCUACACAUCGUAUGUACCGAAUCGGCGGCGGCGGAAAGUAUUAUGUUACGCCGUUCGGAUCUGCACUUCCAGCA | -0.0726 |

Study 4 — method: RNA Bind-n-Seq; molecule type: RNA; matrix: in vitro; tested at: not given; relative to: input RNA pool; reading: higher = stronger binding
Target: RING finger protein unkempt homolog, zinc fingers 1-6, GST-SBP tag (UNK, Homo sapiens, UniProt Q9C0B0, residues 30-357)
Chain of UniProt Q9C0B0 (30-357, looked up): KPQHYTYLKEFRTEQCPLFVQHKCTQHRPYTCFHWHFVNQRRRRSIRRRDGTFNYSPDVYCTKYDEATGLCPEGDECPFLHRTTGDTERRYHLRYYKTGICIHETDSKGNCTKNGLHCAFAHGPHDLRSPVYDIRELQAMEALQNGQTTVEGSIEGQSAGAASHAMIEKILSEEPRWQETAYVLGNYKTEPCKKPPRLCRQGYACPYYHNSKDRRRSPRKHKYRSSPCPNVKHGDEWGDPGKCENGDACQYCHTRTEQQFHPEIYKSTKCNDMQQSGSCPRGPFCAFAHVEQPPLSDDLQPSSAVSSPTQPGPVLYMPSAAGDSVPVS
Setting: RNA with constant flanks, human and mouse sites, ends assumed
Shared flanks, not repeated: GGGAGUUCUACAGUCCGACGAUC … CAACAGAGGAUUGAGCAUCA
| Strand | bound/input enrichment |
| --- | --- |
| AAAUCAUGUGUGUCAAAUAUUGAAAGUACUUUAUCUGCACUCCAAUAUGUAAGCAGCAUAGUAGUUUCUUUAGAGAAUAGGUCUGCCAUUGUGAAGUAUAAUGCAAGCUCAGUCACUCCA | 2.39 ratio |
| UCCCACAGCAGCACCUCCUCGAAGGCUCAUGACAGUGCUUCCUGUUCACAGUCCCAGGGUGGCUUCAGCCAGCCCCAAGGCACUCCUUCUCAGUUGCACGAGCUCUCACAGUAUCAGGGU | 0.112 ratio |
| UUUUUGAAGGGUGUGAUGCUUGGAAGCAUUUUCUGUGCUUUGAUCACUAUGCUAGGACACAUUAGGAUUGGUCAUGGAAAUAGAAUGCACCACCAUGAGCAUCAUCACCUACAAGCUCCU | 0.192 ratio |
| CAAUACAAAUCACUAAUUUUGGACUCCCUUCCUGGAGUGUGUGUGUGUGUGUGUGUGUGUGUGUGUGUGUGUGUGUGUGUGUGUGUGUGUGUAAAUGAGAAUGAGAUUUGUACACACCCA | 0.434 ratio |
| AAUGCUGCCAGCUUUUUCUUUUUCUUUCUUUUUUUUUUUUUUUUUUCCUUCCAGGGCCGUUUUCUGAUAUAUGUUGGGUAUCAUAGAGUGAAUCUCAGAACAGGAAGCGGAGGCAUAAGC | 1.98 ratio |
| AUGAGGCUAUCCUAGCUGCCCUCGAGCCUCCGGAAACUCAACCCAAAAGGAAGUGCUGUAUAUUCUAAACCGUUUUCUCCUUCCCCUCUUUGCUGCUGCUUCCUGUCCCACUACUGUAGA | 1.01 ratio |
| UGGACUGAUCUCUUUGACAAUAAGGUUUUGACAUUUGCAUAUAAACAUGCAUUAGUAAAUAAAAUGUAUGGGAGAGGCCUUAAAUUUGCAACUAAACUUGUGGAAGAAAAACCAACAAAA | 0.242 ratio |
| AGGGCCCCGGCAAGAAGUGCGCCAAGCUCAAGGCGCCUGCGGGCAAGGCGGGCGCGGGCAAGGCGGCGCAGCCGGGGGACUGCGCCGCGGGCAAGGCAGCCAAGUGCGUCUUCCUGGACG | 0.275 ratio |
| UGGAUGACGCUUUGUCAAACACAAAUGAAAUUAAUGGCGAUUCCUCUAGUCUUUCAGAUUAUGUUUGGAAUAUUAAAUGGUCUAUACCAUUAUGCAGUAUUUGAAGAGACACUUGAGAAA | 0.273 ratio |
| AAUCUUGGAAUGAGUUCUUCAUUGAAUCAACAAGGAGCUCAUAGUGCACUGUCUUCUGCUAGUACUUCUUCCCAUAAUUUGCAGUCUAUAUUUAACAUUGGAAGUAGAGGUCCACUCCCU | 0.581 ratio |
| ACCAAACUUUUUCUGAUCUUGGCAAAAAUGUUUCCCCACGUACAAACUGAUGUCCUUGUGCGGGUCAAGGGACCUUUGCUAGCUGCCUGUUCUUCAGAGAGCCGUGAGCUCUGUUUUGUU | 0.144 ratio |

Repeated from above (study 3):
| Strand | log2 enrichment |
| --- | --- |
| CUCAAGUCCUGUGCUACACAUCGUAUGUACCGAAUCGGAAAGGUUUGGUUUGGAAAGUAUUAUGUUACGCCGUUCGGAUCUGCACUUCCA | -0.436 |
| GUCCUGUGCUACACAUCGUAUGUACCGAAUCGGAAAAAGGGAAAAAGGGGAAAAAGGGGAAAGUAUUAUGUUACGCCGUUCGGAUCUGCA | 0.0383 |
| GCAGGAAGUAAAAACAAAUGGAAAUGCUUCGGAUAGUGGCAGGGGGGGGGGUUGCUAAGGAAAGGGUGGGAUGGGAGUGGGUAAAGAGUU | 0.293 |
| ACCAUGCAGGUGGGCAUCUUUGGGAAGUGGGGCAAGGGGGGGAUAGGGAGGGGGGUAACACUUUGGGAACAGGUGGUCCCAGGUCGAUUC | 0.588 |
| UGGCCCUGGUGGCAUGCGGGGAGGAAGAGGUGGCCUCAUGGAUCGUGGUGGGCCCGGUGGAAUGUUCAGAGGUGGCCGUGGUGGAGACAG | 0.476 |
| GCAGGAAGUAAAAACAAAUUGAAAUGCUUCGGAUAGUGGCAGGGGUGGGGGUUGCUAAGGAAAGGGUGGGAUGGGAGUGGGUAAAGAGUU | 0.426 |
| AAGUCCUGUGCUACACAUCGUAUGUACCGAAUCAAAUUUAAACCCCCAAACCCAAAAAAGUAUUAUGUUACGCCGUUCGGAUCUGCACUU | -0.292 |
| AAGUCCUGUGCUACACAUCGUAUGUACCGAAUCGGUUUUUUUGGUUUUUGGAAAGGAAAGUAUUAUGUUACGCCGUUCGGAUCUGCACUU | -1.06 |
